Assay results of several laboratories.
Numbered parts are unrelated; each lists some results of a single study. Changes are numbered by the printed parent chain.

Study 1
Target: RNA binding protein fox-1 homolog 2, RRM domain, GST-SBP tag (RBFOX2, Homo sapiens, UniProt O43251-10, residues 100-194)
Method: RNA Bind-n-Seq
Molecule type: RNA
Matrix: in vitro
Concentration: 365 nM
Setting: natural RNA segment, single round, ends assumed
Relative to: no-protein control
Reading: higher = stronger binding
Shared flanks, not repeated: GGGAGUUCUACAGUCCGACGAUC … UGGAAUUCUCGGGUGCCAA
Construct (chain): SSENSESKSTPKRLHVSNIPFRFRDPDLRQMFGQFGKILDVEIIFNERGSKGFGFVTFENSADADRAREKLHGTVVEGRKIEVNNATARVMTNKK
Strand	RBNS enrichment (R)
UGGCCACUGAGUGGUUAUCACCUCAGUGAAUCUUCCCAGGGCUCUGCAGUAAAAACAAAGGACAACCCAGCCAAGCAGAGGAAGAAGCUGCCGAAGGGGACAGACUCCAC	0.269
UGUUUCAUUGUCCAGAAAGCAGCAGGAAACUAUUCAGUUGUGAUCAAGCAGGAAAAAAGAAACACCAACAGUUGCCAGUGUUUUUGCUUUUUAGCUUAAAAGCAUAGUGA	0.352
AGGGAGAGCCAAUGGCCUCUGGUAGCCUUAAGCCCAAAGGGCAGUGGGAAUGUCCCCUGCCCCAACCAUCGGGUGGAGCUCCUGCUGGGCUAUGGGGAAGGGAGGUUGUG	0.697
AGGGUUCAGCCUUGGGAGGCCAGGCUGGCUGGCUCACUCUCUUUCUCAUUCACUGCCAGACCCCACAUGGAGAGGCACCCAAAAGGAGAAGUUGACCAUUCCAUGUCUCA	0.339
GGUCACUGUGUUUCCACACAGCAAAAACAGACGUAGCCAUAUCAGAUGGAAAACAUGCAUAGACACAAACCCCCUGCCUUAUGUGGAAAUCAUAGCCCCCUGCCGCUCAG	0.669
CAUGAUAGUGCCCCCAACCAGGUUGUAGCAUUGCCUUUUAAAAGAGACUCACUCACUCUUAGUUUUUAAGAACUGGAAAUUUCCCAUCCUCAGAUCCCUUAAAGGAUGAA	0.747
UCUUCUGUGUGUAGCCUGUAGCUGGUCAGCCUGCUUCUGCCCCCUCCUGAUUUCCCUAAGGAGCCUGGGAUGAUGUUGGUCAAAUGACCUAGAAACAAGGAUUCUACCUG	0.334
AUUUGAAACCAAGGGACAAGACAACCUGCAGCUGACGCUCUGACAUUUCAUGACAGUUUCCUCUUUAGGGACAGCUGAGUUGCCAGUUGUGGGAGAGAACCCGGGGCCUG	0.344
AGUGUUUAGGUGUUUGGUCUUGCUUCUUGUAUGGCAUUUUUCAAUAAACUUUAAAAAAAAAAAAAAAGCCUGACUGUGAGGAUUGAUCCACUUUUAAAGUUCUCUUCUAA	0.59
CAAGAGUGCAGGAGUGGACUCUCCACUGAUGGGUCUCCCUCCCCAUCCUGGUUUCCACCCCGGGCUGGCUAGCUCUGUUGGUUUGAAGACUGACAGCCAGCCUGGCUCAU	0.641
CCACGCCAUAUCCUUUGUGGAGCAUAGUGGGUUAUCUAUCUGUCUGUCUGUCUAUGUAUCUGUCUAUCUAUCUAUAUAUAUAUUCAGCUUCUUUACUGCUACCUACACAU	0.299
AAAAAAGGGGGUUUAAAUACUGUUGGCAUUUUUAUGGUUCCUUUAAAUGCCCUAGCUAUUCCCAGAGGGGUUUUUUUGUUUGUUUUUUUGGUUUUGAUUUUCUUUUUGUU	4.99

Study 2
Target: Histone acetyltransferase KAT6A, winged helix 1, GST fusion (KAT6A, Homo sapiens, UniProt Q92794, residues 1-85)
Method: protein binding microarray
Molecule type: double-stranded DNA, one strand shown
Matrix: in vitro
Concentration: not given
Setting: 8-mer, flanks averaged, mean of 2 arrays, mostly near background
Relative to: not given
Reading: higher = stronger binding
Target sequence (chain): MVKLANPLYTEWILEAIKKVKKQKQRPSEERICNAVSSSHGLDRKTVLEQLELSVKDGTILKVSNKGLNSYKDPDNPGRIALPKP
Strand	E-score
CCACCTAG	-0.0986
ACGCTCGC	0.141
CATAGCAC	-0.0204
CTCATTAC	0.0499
AGATCGTG	-0.235
GGGCGCGA	0.293
TACACCCA	-0.198
ATGTGCCA	-0.159
AAACAGTC	-0.00385
AAGGATAG	-0.218
CCTATCTA	-0.143
GGATACAA	-0.108
CTCACGTA	-0.212
CACGTTGA	-0.178
AGGTGTTC	-0.111
GCCTAGCA	-0.019
GCCACCAC	-0.0175
GACCAAGC	-0.0434
CGGCGTTA	0.378
AGGAGGAG	-0.207
GCCGCAGC	0.353
AGTCTCGG	0.0625
AGAGTGCT	-0.0752
GAGTCAAC	-0.162
ATCTGATA	-0.045

Study 3
Target: Interferon regulatory factor 7, full length, phosphomimetic (IRF7, Homo sapiens, UniProt Q92985, residues 1-503, S471D/S472D/S475D/S476D/S477D/S483D/S484D/S487D)
Chain of UniProt Q92985 (whole entry, unmodified, looked up): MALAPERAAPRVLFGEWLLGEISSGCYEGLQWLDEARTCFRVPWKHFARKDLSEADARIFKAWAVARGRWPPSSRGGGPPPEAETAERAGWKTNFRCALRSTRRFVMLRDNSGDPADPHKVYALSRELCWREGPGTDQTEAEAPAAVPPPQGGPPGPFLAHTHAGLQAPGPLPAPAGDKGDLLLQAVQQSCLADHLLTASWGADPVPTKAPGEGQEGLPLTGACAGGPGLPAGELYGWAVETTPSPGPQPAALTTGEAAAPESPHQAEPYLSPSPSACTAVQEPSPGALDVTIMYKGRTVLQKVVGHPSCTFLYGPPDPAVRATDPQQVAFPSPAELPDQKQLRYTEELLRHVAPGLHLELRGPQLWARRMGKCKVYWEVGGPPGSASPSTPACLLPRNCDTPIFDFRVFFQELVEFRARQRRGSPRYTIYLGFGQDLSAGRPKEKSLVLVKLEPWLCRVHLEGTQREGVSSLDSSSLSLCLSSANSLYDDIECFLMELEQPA
Method: protein-binding microarray
Molecule type: double-stranded DNA, one strand shown
Matrix: in vitro
Concentration: 2200 nM top
Setting: 60-bp whole probe
Together with: salmon DNA 0.4 mg/ml
Relative to: random background probes
Reading: higher = stronger binding
Shared flanks, not repeated: GCCTAGCAC … GTCTTGATTCGCTTGACGCTGCTG
Strand	fitted relative affinity [z-score]
ACTAGTTTCTTTTCTTTTCTGTGCTAG	8.61
GAGGAGGGGCTGTTACTCTCGTGCTAG	-0.248
TGGTATTTTTTTGTAATCGAGTGCTAG	0.688
TTAGGACTGGACACCGGGTTAGTGCTA	-0.681
TCAACCATCTCATATAAAACTGTGCTA	0.0828
TTAGAACTCAGTCTCGATTAGTGCTAG	0.0192
GACGATCTCAGTAGCGAGACGTGCTAG	-0.0792
GACGGACTGGGTCTCGGTACGTGCTAG	-0.625
TTAGATCTCCGACTGGATTAGTGCTAG	0.121
GACGATATCGGGTATCGAGCCGTGCTA	0.0306
TTCAGTTTTCCTATGTCATTGTGCTAG	2.7
TCAGGTCTCGCTATGTTACTGTGCTAG	1.19
TTAGGTTCCGGCTTCGGTTAGTGCTAG	1.53
GACGGTATCGGACAGGGGACGTGCTAG	-0.446
TTAGGTTGCGGTTTCGGTTAGTGCTAG	6.97
GACAGTCTCCTTTTCCTGACGTGCTAG	1.8
ATTGCTTCCTCTTTCACTGGGTGCTAG	2.54
GGCGGACTGCTTATCCTGACGTGCTAG	-0.338
TGAGGTCTCGGTTTCGGTTAGTGCTAG	6.42
CGCTTTTTTTTTTTTTTTTTGTGCTAG	1.74
TTAGAGTTCAGTATCGATTAGTGCTAG	0.121
GAGGTTTTCTAATGTTTTTTAGTGCTA	0.204
CCCTCCCTAATTCTGATTGGGTGCTAG	0.609
GACGGACTGGATATCGGGACGTGCTAG	-0.458
GACGGTTTCCTGTCCCTGACGTGCTAG	2.8

Study 4
Target: CCNA2, cyclin fold, Cln2 fusion (human)
Method: yeast growth competition, sequencing
Matrix: yeast
Setting: strong parent motif
Relative to: not given
Reading: higher = stronger binding
Starting sequence: RBL1 docking peptide (human); GSAKRRLFGEDPP; partner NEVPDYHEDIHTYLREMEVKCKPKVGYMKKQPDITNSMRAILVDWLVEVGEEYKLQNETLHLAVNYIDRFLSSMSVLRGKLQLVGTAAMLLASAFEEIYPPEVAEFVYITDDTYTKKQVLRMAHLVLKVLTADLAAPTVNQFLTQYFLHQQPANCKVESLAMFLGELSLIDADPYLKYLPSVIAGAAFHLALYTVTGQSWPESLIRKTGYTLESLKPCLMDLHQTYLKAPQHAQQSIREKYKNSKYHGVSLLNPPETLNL
Change	normalised enrichment score
GSAKRRLFGGDPP [E10G]	5.25
GSAKRRLFGYDPP [E10Y]	5.02
ESAKRRLFGEDPP [G1E]	4.61
GSAKRRLFQEDPP [G9Q]	5.98
DSAKRRLFGEDPP [G1D]	4.5
GSAKRRLFGEDPM [P13M]	5.53
GSAKRRIFGEDPP [L7I]	2.58
GSAKRRKFGEDPP [L7K]	1.31
GSAKRMLFGEDPP [R6M]	2.98
GSAKRRLTGEDPP [F8T]	0.931
GSGKRRLFGEDPP [A3G]	1.8
GSAKRRLFGEHPP [D11H]	4.98
GSAKRRVFGEDPP [L7V]	1.53
GSAKRRLFGSDPP [E10S]	5.85
GSAKRRLFGTDPP [E10T]	5.25
GSAKRRLFGEDPA [P13A]	5.67
GSLKRRLFGEDPP [A3L]	1.96
GSAKRRLFCEDPP [G9C]	6.04
GSAPRRLFGEDPP [K4P]	0.627
GSAKRCLFGEDPP [R6C]	4.67
GSAKDRLFGEDPP [R5D]	0.0654
GSANRRLFGEDPP [K4N]	2.63
GSAKRREFGEDPP [L7E]	0.0658
TSAKRRLFGEDPP [G1T]	5.98
GSAMRRLFGEDPP [K4M]	1.87

Other studies, line by line
Molecule	target	assay	system	conditions	how to read	measurement	result
PhoQ, residues 284 288 289 292 302 303 AEGLLW	PhoP, residues 12 14 15 18 19 SGWQI (Escherichia coli, UniProt P23836)	Sort-seq, measured: YFP reporter	E. coli	PhoQ-PhoP variant library, together with: 10 µM Mg2+	relative to: high Mg2+ state, higher = stronger signaling	fold induction	0.407

Some of these lines once more (study 2):
Strand	E-score
CCACCTAG	-0.0986
GCCGCAGC	0.353
CACGTTGA	-0.178
CATAGCAC	-0.0204
AAGGATAG	-0.218
AGATCGTG	-0.235
ATGTGCCA	-0.159
AGTCTCGG	0.0625
CTCATTAC	0.0499
AGAGTGCT	-0.0752
ACGCTCGC	0.141
